Assay results pooled from the literature.
SIK1: Serine/threonine-protein kinase SIK1 (SIK1, Homo sapiens, UniProt P57059)
Chain of UniProt P57059 (whole entry, looked up): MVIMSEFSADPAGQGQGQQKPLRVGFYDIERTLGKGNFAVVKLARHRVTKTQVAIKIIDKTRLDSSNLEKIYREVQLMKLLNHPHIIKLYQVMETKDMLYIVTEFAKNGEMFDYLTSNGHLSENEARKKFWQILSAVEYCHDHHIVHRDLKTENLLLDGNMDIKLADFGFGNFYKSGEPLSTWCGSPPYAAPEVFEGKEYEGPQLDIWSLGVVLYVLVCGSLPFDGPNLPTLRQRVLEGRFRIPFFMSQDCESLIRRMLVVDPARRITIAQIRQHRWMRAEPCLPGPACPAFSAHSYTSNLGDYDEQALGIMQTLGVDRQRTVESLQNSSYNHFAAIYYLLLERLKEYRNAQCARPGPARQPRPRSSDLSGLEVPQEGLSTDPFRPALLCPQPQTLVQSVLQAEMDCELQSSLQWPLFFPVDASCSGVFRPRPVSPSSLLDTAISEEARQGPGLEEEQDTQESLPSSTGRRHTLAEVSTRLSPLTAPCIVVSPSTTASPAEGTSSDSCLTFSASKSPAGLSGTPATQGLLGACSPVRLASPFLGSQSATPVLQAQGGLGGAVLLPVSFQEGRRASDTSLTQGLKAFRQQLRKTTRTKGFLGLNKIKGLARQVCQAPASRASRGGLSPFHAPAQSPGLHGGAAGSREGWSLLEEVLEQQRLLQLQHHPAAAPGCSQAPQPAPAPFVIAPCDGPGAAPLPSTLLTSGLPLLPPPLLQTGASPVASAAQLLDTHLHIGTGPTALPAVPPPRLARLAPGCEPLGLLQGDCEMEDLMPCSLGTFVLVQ
Chain of UniProt Q9H2K8 (whole entry, looked up): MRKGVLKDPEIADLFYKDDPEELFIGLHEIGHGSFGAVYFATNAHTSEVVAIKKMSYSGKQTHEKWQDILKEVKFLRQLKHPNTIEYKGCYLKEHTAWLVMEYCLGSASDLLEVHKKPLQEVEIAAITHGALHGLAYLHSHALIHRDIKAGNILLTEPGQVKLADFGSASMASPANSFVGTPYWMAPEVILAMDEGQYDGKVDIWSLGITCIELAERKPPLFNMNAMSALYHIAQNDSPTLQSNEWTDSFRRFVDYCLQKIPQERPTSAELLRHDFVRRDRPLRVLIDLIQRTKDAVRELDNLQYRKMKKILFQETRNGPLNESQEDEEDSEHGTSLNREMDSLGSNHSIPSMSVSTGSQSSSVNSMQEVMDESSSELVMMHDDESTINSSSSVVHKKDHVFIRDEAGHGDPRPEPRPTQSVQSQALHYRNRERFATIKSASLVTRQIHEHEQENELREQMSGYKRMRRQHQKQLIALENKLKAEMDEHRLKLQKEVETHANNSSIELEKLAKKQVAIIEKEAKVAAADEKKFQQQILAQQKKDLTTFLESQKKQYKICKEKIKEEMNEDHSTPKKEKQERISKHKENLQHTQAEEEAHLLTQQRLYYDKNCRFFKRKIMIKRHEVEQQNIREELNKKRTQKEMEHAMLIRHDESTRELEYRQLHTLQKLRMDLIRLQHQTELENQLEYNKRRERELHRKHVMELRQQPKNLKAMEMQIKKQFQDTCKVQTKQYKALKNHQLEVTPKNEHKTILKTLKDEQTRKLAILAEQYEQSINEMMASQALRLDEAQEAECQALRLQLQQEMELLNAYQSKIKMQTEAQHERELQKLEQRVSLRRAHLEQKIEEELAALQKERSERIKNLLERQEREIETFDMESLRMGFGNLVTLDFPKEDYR
Chain of UniProt Q13546 (whole entry, looked up): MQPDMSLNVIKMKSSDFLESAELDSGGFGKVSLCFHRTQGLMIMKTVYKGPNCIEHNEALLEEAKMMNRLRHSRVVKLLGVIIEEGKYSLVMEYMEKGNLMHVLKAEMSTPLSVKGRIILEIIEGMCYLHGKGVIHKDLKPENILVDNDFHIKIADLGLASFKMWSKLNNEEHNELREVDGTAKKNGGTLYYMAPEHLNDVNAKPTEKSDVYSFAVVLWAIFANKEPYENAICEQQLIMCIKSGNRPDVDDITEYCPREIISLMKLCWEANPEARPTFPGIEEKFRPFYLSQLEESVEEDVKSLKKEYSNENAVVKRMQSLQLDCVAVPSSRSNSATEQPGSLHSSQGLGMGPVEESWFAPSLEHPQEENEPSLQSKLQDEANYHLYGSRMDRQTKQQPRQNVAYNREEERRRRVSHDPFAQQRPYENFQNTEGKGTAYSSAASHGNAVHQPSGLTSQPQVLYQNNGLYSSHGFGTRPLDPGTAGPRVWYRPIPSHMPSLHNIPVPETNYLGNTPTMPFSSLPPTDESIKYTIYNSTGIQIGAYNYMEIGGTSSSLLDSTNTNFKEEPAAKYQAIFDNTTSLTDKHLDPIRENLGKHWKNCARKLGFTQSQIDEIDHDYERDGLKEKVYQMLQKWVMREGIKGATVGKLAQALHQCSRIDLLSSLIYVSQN
Chain of UniProt Q00536 (whole entry, looked up): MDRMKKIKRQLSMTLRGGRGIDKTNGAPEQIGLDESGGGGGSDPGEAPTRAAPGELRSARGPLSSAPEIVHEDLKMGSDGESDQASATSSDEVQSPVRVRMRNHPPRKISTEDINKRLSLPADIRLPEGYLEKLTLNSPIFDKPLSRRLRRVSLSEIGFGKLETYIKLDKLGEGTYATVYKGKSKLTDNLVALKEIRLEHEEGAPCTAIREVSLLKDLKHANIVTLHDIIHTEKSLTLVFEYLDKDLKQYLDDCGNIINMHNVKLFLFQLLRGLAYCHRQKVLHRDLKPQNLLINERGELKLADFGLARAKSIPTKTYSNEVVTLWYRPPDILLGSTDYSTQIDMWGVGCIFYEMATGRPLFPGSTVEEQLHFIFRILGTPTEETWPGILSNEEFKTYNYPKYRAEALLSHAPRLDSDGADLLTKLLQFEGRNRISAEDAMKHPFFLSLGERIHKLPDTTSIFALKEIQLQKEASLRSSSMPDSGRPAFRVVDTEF
Chain of UniProt P42336 (whole entry, unmodified, looked up): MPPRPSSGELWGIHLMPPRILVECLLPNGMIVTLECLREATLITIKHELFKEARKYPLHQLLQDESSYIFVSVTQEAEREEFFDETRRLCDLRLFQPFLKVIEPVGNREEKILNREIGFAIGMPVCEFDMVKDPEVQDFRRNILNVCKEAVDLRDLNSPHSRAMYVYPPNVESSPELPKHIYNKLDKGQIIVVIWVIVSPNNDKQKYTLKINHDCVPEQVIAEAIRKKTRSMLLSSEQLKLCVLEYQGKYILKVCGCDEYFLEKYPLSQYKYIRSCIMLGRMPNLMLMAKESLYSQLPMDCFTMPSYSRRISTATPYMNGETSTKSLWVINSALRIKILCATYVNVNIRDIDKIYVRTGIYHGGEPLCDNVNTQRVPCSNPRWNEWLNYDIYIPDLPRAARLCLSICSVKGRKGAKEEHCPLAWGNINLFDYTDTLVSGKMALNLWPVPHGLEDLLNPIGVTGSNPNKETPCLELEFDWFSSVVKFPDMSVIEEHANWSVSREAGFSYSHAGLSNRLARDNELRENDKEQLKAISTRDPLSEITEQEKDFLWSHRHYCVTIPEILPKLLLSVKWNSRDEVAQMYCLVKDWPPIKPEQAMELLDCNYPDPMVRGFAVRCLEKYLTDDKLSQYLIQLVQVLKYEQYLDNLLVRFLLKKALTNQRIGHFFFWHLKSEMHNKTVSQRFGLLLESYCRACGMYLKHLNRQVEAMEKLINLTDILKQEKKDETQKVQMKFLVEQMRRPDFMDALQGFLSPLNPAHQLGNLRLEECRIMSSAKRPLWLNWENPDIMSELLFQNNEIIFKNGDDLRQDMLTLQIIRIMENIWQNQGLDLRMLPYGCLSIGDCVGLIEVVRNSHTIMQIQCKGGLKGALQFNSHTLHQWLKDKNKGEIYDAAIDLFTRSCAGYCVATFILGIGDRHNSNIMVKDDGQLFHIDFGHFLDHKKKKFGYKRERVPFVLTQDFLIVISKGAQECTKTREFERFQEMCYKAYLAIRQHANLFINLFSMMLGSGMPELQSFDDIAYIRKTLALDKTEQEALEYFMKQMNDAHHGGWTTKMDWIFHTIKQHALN
Chain of UniProt Q5TCX8 (whole entry, looked up): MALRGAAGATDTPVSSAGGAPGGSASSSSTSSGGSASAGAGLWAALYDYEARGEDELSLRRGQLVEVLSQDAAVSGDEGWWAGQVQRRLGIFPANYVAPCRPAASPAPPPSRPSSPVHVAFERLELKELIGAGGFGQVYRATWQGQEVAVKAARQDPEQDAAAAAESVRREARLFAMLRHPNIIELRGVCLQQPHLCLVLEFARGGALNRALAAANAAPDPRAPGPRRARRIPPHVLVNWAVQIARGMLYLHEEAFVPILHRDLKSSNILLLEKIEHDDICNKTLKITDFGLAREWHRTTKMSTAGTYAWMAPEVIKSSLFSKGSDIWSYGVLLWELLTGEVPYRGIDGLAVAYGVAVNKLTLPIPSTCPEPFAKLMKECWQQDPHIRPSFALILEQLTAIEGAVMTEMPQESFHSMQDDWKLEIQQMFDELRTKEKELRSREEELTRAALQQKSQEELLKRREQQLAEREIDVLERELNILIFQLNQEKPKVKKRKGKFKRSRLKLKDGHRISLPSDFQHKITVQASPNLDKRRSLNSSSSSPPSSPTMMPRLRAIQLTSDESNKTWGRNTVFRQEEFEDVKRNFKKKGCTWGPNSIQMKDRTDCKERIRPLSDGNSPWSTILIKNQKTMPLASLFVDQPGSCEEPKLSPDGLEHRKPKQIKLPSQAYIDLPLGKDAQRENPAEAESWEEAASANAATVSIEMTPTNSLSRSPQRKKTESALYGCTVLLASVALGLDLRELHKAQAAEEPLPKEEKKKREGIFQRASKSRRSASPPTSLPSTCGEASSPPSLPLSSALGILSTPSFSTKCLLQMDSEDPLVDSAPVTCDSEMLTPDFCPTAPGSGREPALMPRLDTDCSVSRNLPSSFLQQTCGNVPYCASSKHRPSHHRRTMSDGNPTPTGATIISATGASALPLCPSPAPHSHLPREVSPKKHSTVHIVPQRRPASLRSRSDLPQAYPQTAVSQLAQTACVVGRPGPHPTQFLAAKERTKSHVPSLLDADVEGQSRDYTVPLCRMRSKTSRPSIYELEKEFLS

CNS(=O)(=O)c1ccc(Nc2ncc(C(F)(F)F)c(N3CCC[C@](C)(O)C3)n2)c(C)c1  remaining binding (TAOK3 (Homo sapiens, UniProt Q9H2K8); binding, competition with immobilised ligand; 1 µM): 4.3%
COc1cc(-c2cncc3c2CN(C)Cc2cc(N4CCNCC4)ccc2-3)cc(OC)c1OC  remaining activity (CDKL3 (Homo sapiens, UniProt Q8IVW4); enzyme activity, inhibitor; 1 µM): 113%
C1=C/COCc2cc(ccc2OCCN2CCCC2)Nc2nccc(n2)-c2cccc(c2)COC/1  remaining binding (PIK3CA (Homo sapiens, UniProt P42336, C420R); binding; 0.1 µM): 63%
COc1cccc(-c2n[nH]c(SCc3ccccn3)n2)c1OC  concentration (male Sprague-Dawley rat, plasma; oral, 100 mg/kg, 4 h, single dose): 10.4 µg/mL
CCCCC(=O)Nc1ccc(-c2ccc3ncn(CCC)c(=O)c3c2)cn1  remaining binding (CDK11B (Homo sapiens, UniProt P21127); binding, competition with immobilised ligand; 0.5 µM): 100%
N[C@@H]1CCN(c2nccc(-c3cnn4ncccc34)n2)C1  remaining binding (SIK1; binding; 1 µM): 100%
COc1ccc2oc(-c3ccc4nc(N)oc4c3)c/c(=N\c3ccccc3NC(=O)CCN)c2c1  remaining binding (ARAF (Homo sapiens, UniProt P10398); binding; 1 µM): 96%
C[C@@H]1CCN(c2nccc(-c3cnn4ncccc34)n2)C1  remaining binding (SIK1; binding; 1 µM): 100%
Cc1cc([C@@H](C)Nc2ccccc2C(=O)O)c2nc(N3CCC(F)(F)CC3)c(C#N)c(=O)n2c1  remaining binding (CDK16 (Homo sapiens, UniProt Q00536); binding, competition with immobilised ligand; 10 µM): 64%
CN(C)c1nccc(-c2cnn3ncccc23)n1  remaining binding (CDPK1 (Plasmodium falciparum, UniProt P62344); binding; 1 µM): 100%
Nc1ncnc2occ(-c3ccc(NC(=O)Nc4cc(C(F)(F)F)ccc4F)cc3)c12  remaining signal (FLT3 (Homo sapiens, UniProt P36888, D835V/ITD); cell-free assay, inhibitor; 20 µM): 4.8%
O=c1nc(N2CCN(CC3CCCCC3)CC2)sc2c([N+](=O)[O-])cc(C(F)(F)F)cc12  concentration (CD-1 mouse, lung; oral, 100 mg/kg, 2 h): 0.644 µg/mL
CN(CCCC(F)(F)F)c1nccc(-c2cnn3ncccc23)n1  remaining binding (CDK19 (Homo sapiens, UniProt Q9BWU1); binding; 1 µM): 100%
COc1cccc(OC)c1-c1cc(C(=O)NC2(C(=O)O)C3CC4CC(C3)CC2C4)nn1-c1ccc(C(=O)N(C)CCCN(C)CCCN(C)C(=O)CN2CCN(CC(=O)[O-])CCN(CC(=O)[O-])CCN(CC(=O)[O-])CC2)cc1C(C)C.[177Lu+3] (stereo not drawn)  tracer uptake (HT-29 tumour model; host not given, stomach; 24 h, tumour-bearing): 0.069 %ID/g
C=CC(=O)N1CCC(COCC(=O)N2CCN(c3nc(-c4cnc(N)nc4C(F)F)nc(N4CCOC[C@@H]4C)n3)CC2)CC1  remaining binding (MAPKAPK2 (Homo sapiens, UniProt P49137); binding, competition with immobilised ligand; 1 µM): 90%
CNc1ncc2c(/C=C/C(=O)N3CCC(OC)CC3)nn(Cc3cccc(C(F)(F)F)c3)c2n1  remaining activity (MAP3K21 (Homo sapiens, UniProt Q5TCX8); enzyme activity, inhibitor, radiometric; 1 µM): 109%
C[C@@H](c1ccc(-n2cnc3c(N)ncnc32)cc1)N1CCc2nn(C)c(Cc3ccccc3)c2C1=O  remaining binding (RIPK1 (Homo sapiens, UniProt Q13546); binding, competition with immobilised ligand; 0.1 µM): 1.4%
FC(F)(F)Oc1cccc(-c2cnc3ccc(-c4ccncc4)nn23)c1  remaining binding (PIK3CG (Homo sapiens, UniProt P48736); cell-free assay, competition with immobilised ligand; 5 µM): 0.9%

A few entries again:
Cc1cc([C@@H](C)Nc2ccccc2C(=O)O)c2nc(N3CCC(F)(F)CC3)c(C#N)c(=O)n2c1  remaining binding (CDK16 (Homo sapiens, UniProt Q00536); binding, competition with immobilised ligand; 10 µM): 64%
Nc1ncnc2occ(-c3ccc(NC(=O)Nc4cc(C(F)(F)F)ccc4F)cc3)c12  remaining signal (FLT3 (Homo sapiens, UniProt P36888, D835V/ITD); cell-free assay, inhibitor; 20 µM): 4.8%
